Measured values gathered from unrelated publications.
Protocols differ between the studies behind these lines. ± gives the spread as reported.
CNR1: Cannabinoid receptor 1 (CNR1, Homo sapiens, UniProt P21554)
Sequence of UniProt P21554 (whole entry, unmodified, looked up): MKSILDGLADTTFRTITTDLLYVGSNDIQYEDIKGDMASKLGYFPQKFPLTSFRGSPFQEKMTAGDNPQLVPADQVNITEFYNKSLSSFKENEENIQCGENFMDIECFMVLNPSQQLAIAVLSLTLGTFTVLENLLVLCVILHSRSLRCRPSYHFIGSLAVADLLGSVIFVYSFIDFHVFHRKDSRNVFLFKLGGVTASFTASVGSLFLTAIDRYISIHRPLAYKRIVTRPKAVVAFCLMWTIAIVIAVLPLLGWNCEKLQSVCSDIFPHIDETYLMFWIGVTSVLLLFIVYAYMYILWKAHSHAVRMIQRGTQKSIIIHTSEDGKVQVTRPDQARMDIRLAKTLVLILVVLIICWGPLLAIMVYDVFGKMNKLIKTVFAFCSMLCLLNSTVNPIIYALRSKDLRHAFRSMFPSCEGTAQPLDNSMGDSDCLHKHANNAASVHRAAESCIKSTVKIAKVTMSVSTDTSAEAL

CCCCCc1ccccc1C/C=C\C/C=C\C/C=C\CCCC(=O)N[C@H](C)CO
Emax (CNR1; cAMP, agonist; 10 µM, highest concentration tested): 70%

CN1CCN(c2cc(-c3ccncc3)c(-c3ccc4ccccc4c3)nn2)CC1
activation (CNR1; agonist, FLIPR; 12.5 µM): -3.8%

CCC(CC)(NC(=O)c1ccc(N2CC(OC)C2)c(OC[C@H]2C[C@@H]2CO)n1)C(=O)NCCOCCOCCNC(=O)c1ccc2c(c1)C1(OC2=O)c2ccc(N(C)C)cc2[Si](C)(C)c2cc(N(C)C)ccc21
displacement (CNR1; binding; CHO membranes; 10 µM, together with: [3H]CP55940): 21 ± 4%

CCCCCCC(C)(C)c1ccc([C@@H]2C[C@H](O)CC[C@H]2CCCO)c(O)c1
Hill coefficient (CNR1; binding, agonist, radioligand binding): 0.9

CCCCC/C=C\[C@H](C)/C=C\C/C=C\Cc1ccccc1CCCC(=O)N[C@H](C)CO
Emax (CNR1; cAMP, agonist; 10 µM, highest concentration tested): 57%

CCCCCCC(C)(C)c1ccc(C2CC(O)CCC2CCCO)c(O)c1 (stereo not drawn)
inhibition (CNR1; forskolin-stimulated adenylyl cyclase, agonist; CHO cells; 1 µM): 79%

CCCCCCC(C)(C)c1ccc([C@@H]2C[C@H](O)CC[C@H]2CCCO)c(O)c1
Emax (CNR1 (Homo sapiens, UniProt P21554, H178A); Gαi1 engagement, agonist, BRET; TM2 mutant H178A; baseline: wild type receptor): 57.7 ± 5.2%

O=c1ccc2ccccc2o1
inhibition (CNR1; agonist radioligand binding; 10 µM, SafetyScreen44): 1.68%

COC(=O)[C@@H](NC(=O)c1nn(Cc2ccc(F)cc2)c2ccccc12)C(C)(C)C
Emax (CNR1; β-arrestin-1 recruitment, agonist; baseline: compound maximum): 96 ± 8%

CC/C(=C(\c1ccc(O)cc1)c1ccc(OCCN(C)C)cc1)c1ccccc1
adenylyl cyclase activity increase (CNR1; measured: cAMP; CHO-hCB1 cells; 10 µM; baseline: basal): 17%

CCCCC/C=C\C/C=C\C/C=C\Cc1ccccc1CCCC(=O)OC(CO)CO
Emax (CNR1; cAMP, agonist; 10 µM, highest concentration tested): 15%

O=C(O)c1cn(Cc2ccc(F)cc2)c2ccccc12
activity (CNR1; agonist, GTPγS binding; concentration not given): inactive
